# Measured values gathered from unrelated publications.
# Compare with care: the assays were run in different laboratories. Values joined by “and” are separate records of one study, mostly repeats; a detail may differ. Numbers after ± are the reported error.
# Cell line: OVCAR-5
SMILES,assay,system,conditions,how to read,quantity,result
O=C1NCCc2[nH]c(-c3ccncc3)cc21,MTS,,NCI60 panel,,IC50,5.31 µM
C#C[C@@]1(O)[C@@H](CO)O[C@@H](n2cc(Cl)c3c(N)ncnc32)[C@@H]1O,SRB,,NCI-60 screen,,TGI,70.8 µM and > 100 µM
COC(=O)/C=C1\C(=O)C=C2C3CC4CC(CCC4(C)N21)C3(C)NC(C)=O (centres unmarked),cell growth,,NCI screen,,IC50,18.8 µM
CCCCN1CCN(c2ccc3[nH]c(-c4ccc5[nH]c(-c6ccc(C(F)(F)F)cc6)nc5c4)nc3c2)CC1,SRB,,"10 µM, 48 h",,growth percent,-89.2%
CC(=O)O[C@H]1C(=O)[C@@]2(C)[C@H]([C@H](OC(=O)c3ccccc3)[C@]3(O)C[C@H](OC(=O)[C@H](O)[C@@H](NC(=O)c4ccccc4)c4ccccc4)C(C)=C1C3(C)C)[C@]1(OC(C)=O)CO[C@@H]1C[C@@H]2O,sulforhodamine B,Ovarian cancer,NCI60 screen,,TGI,0.79 µM
CCCCN1CCN(c2ccc3[nH]c(-c4ccc5[nH]c(-c6ccc(OCC)cc6)nc5c4)nc3c2)CC1,SRB,,"10 µM, 48 h",,growth percent,135%
Cc1n[nH]c2nc(-c3ccc(Cl)cc3)c3c(NC(=O)c4ccccc4)nnc-3n12,SRB,,"10 µM, NCI60 single-dose screen",baseline: untreated,cell growth,124%
CCCCN1CCN(c2ccc3[nH]c(-c4ccc5[nH]c(-c6ccc(OCC)c(OCC)c6)nc5c4)nc3c2)CC1,SRB,,"10 µM, 48 h",,growth percent,37.7%
O=C(Nc1nnc2[nH]c(=S)[nH]c(-c3ccc(Cl)cc3)c1-2)c1ccccc1,SRB,,"10 µM, NCI60 single-dose screen",baseline: untreated,cell growth,108%
CCCCN1CCN(c2ccc3[nH]c(-c4ccc5[nH]c(-c6cc(OC)c(OC)c(OC)c6)nc5c4)nc3c2)CC1,SRB,,"10 µM, 48 h",,growth percent,117%
Cc1cc(-c2ccccc2)n(-c2nc(-c3ccc(Cl)cc3)c3c(NC(=O)c4ccccc4)nnc-3[nH]2)n1,SRB,,"10 µM, NCI60 single-dose screen",baseline: untreated,cell growth,99.7%
C#C[C@@]1(O)[C@@H](CO)O[C@@H](n2ccc3c(N)ncnc32)[C@@H]1O,SRB,,NCI-60 screen,,TGI,8.54 µM
Cn1cncc1C1=CN(c2ncnc3[nH]cnc23)CCS1,,,ovarian cancer,,TGI,162 µM
CCCCN1CCN(c2ccc3nc(-c4ccc5nc(-c6cc(OC)ccc6OC)[nH]c5c4)[nH]c3c2)CC1,SRB,,"10 µM, 48 h",,growth percent,117%
C#C[C@@]1(O)[C@@H](CO)O[C@@H](n2cc(Br)c3c(N)ncnc32)[C@@H]1O,SRB,,NCI-60 screen,,TGI,> 100 µM and 56.7 µM
CCCCS(=N)(=O)CCC(N)C(=O)O (centres unmarked),"LC-ESI-MS/MS, measured: glutathione",,"200 µM, 12 h",,cellular GSH concentration,6.6 ± 0.1 µM
NNc1nc(-c2ccc(Cl)cc2)c2c(NC(=O)c3ccccc3)nnc-2[nH]1,SRB,,"10 µM, NCI60 single-dose screen",baseline: untreated,cell growth,104%
S=C([S][Au-][P+](CCCCCC[P+]([Au-][S]C(=S)n1cccn1)(c1ccccc1)c1ccccc1)(c1ccccc1)c1ccccc1)n1cccn1,"cell growth, NCI-60 screen",,ovarian cancer,,log10 TGI,-4.54
CCCN1CCN(c2ccc3[nH]c(-c4ccc5[nH]c(-c6ccc(OCC)c(OCC)c6)nc5c4)nc3c2)CC1,SRB,,"10 µM, 48 h",,growth percent,-15.2%
O=C(Nc1nnc2n3c(nc(-c4ccc(Cl)cc4)c1-2)SCC3=O)c1ccccc1,SRB,,"10 µM, NCI60 single-dose screen",baseline: untreated,cell growth,101%

# Some of these lines once more:
SMILES,assay,system,conditions,how to read,quantity,result
Cn1cncc1C1=CN(c2ncnc3[nH]cnc23)CCS1,,,ovarian cancer,,TGI,162 µM
CCCCN1CCN(c2ccc3nc(-c4ccc5nc(-c6cc(OC)ccc6OC)[nH]c5c4)[nH]c3c2)CC1,SRB,,"10 µM, 48 h",,growth percent,117%
